Measured values from different studies.
Parts stem from different laboratories: compare values within a part only.

Study 1
Target: Interferon regulatory factor 3, full length, phosphomimetic (IRF3, Homo sapiens, UniProt Q14653, residues 1-427, S386D/S396D/S398D/S402D/T404D/S405D)
Sequence of UniProt Q14653 (whole entry, unmodified, looked up): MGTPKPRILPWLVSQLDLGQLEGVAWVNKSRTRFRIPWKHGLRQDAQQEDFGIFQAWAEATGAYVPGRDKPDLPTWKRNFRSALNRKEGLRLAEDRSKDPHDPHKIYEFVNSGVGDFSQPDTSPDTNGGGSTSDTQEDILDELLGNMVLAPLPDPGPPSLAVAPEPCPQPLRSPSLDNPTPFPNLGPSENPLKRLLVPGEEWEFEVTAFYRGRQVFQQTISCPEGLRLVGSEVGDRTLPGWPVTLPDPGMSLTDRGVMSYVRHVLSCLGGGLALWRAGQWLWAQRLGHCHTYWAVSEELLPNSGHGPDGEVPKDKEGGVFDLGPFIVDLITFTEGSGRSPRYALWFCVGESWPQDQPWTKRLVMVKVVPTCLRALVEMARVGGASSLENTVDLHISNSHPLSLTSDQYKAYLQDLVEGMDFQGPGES
Method: protein-binding microarray
Molecule type: double-stranded DNA, one strand shown
Medium: in vitro
Tested at: 2540 nM top
Notes: 60-bp whole probe
Added: salmon DNA 0.4 mg/ml
Baseline: random background probes
Direction: higher = stronger binding
Constant ends, left off below: GCCTAGCAC … GTCTTGATTCGCTTGACGCTGCTG
Sequence	fitted relative affinity [z-score]
GACGAATTCGGGACTGGAGACGTGCTA	0.369
TTAGATCTCAAACTGGATTAGTGCTAG	-0.0011
GACGGACTGGGATTTCGGGACGTGCTA	-0.415
GACGGCCTGGGTTTCGGGACGTGCTAG	0.628
TCATGTACATCTCTCTTACTGTGCTAG	0.36

Study 2
Target: Histone acetyltransferase KAT6A, winged helix 1, GST fusion (KAT6A, Homo sapiens, UniProt Q92794, residues 1-85)
Method: protein binding microarray
Molecule type: double-stranded DNA, one strand shown
Medium: in vitro
Tested at: not given
Notes: 8-mer, flanks averaged, mean of 2 arrays, mostly near background
Baseline: not given
Direction: higher = stronger binding
Target sequence (chain): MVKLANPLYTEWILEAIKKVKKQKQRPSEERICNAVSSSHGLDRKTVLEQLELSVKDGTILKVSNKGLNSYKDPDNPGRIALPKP
Sequence	E-score
GAGAGCTC	-0.04
ACTTAGTG	-0.248
ATGGTCAC	-0.147
GGATGCAA	-0.215

Study 3
Target: RING finger protein unkempt homolog, zinc fingers 1-6, GST-SBP tag (UNK, Homo sapiens, UniProt Q9C0B0, residues 30-357)
Sequence of UniProt Q9C0B0 (30-357, looked up): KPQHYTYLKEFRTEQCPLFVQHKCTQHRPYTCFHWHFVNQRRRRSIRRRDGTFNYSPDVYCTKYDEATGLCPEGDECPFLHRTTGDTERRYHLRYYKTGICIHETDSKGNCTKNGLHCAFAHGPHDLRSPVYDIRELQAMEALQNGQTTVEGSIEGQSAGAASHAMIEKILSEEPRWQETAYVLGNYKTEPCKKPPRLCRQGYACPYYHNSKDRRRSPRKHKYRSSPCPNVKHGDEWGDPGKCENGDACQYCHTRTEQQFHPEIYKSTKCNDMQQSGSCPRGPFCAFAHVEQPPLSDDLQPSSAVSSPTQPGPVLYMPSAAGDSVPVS
Method: RNA Bind-n-Seq
Molecule type: RNA
Medium: in vitro
Tested at: not given
Notes: RNA with constant flanks, human and mouse sites, ends assumed
Baseline: input RNA pool
Direction: higher = stronger binding
Constant ends, left off below: GGGAGUUCUACAGUCCGACGAUC … CAACAGAGGAUUGAGCAUCA
Sequence	bound/input enrichment
AUAGAUGAAAUUGAUGUAGAUCAGGAAGGAAUUGCAGAAAUGAUGCUGGAUGAAAAUGCUAUAGCUCAAGUUCCACGCCCUGGAACGUCUUUGAAACUCCCUGGAACUAAUCAGACAGGA	0.483 ratio
ACAGAUUUACUGAGAUUAUUUGAAUAUGGAGGUUUCCCACCAGAAGCCAACUAUCUUUUCUUAGGAGAUUAUGUGGACAGAGGAAAGCAGUCUUUGGAAACCAUUUGUUUGCUAUUGGCU	0.608 ratio
UCAAGUGGACAUGAAGGAAGGGGUGGGGGGAGGGGCGGGUUUUUUUUUUUUCAAUAUAAGUAGCACAUGGUUUAAAUAUGAAUGACUGAACUUGUGAUCUAGUCCUUGUCUGGUAAUUGU	23.7 ratio
GGGAGCAUUGGUGAAAUAGAAUCCUGCAAACUUGUGAGAGACAAAAUUACAGGACAGAGUUUAGGGUAUGGAUUUGUUAACUAUAUUGAUCCAAAGGAUGCAGAGAAAGCCAUCAACACU	0.423 ratio
AAAGGACUUACUGAGCAGCAAAAGGAAGGCAUCCGCAUGGUGACAAGGGUGAUGCUGUCCUUAGAAGGCGAAGACGGGCUGGAUGAAAUUUAUUCCUUCAGUGAGAGUCUACGACAACUG	0.189 ratio
ACGGCUCGUAGUUUAUUAAAUGAUGUCCAGUUCGGCCAGUUUGGAGAUGACCCAAAGGAAGAAGUCAUGGUGUUGGAGAGGAUCUUACUGCAGACCAUAAAGUUUGACUUACAAGUAGAG	2.45 ratio

Mixed results
Molecule	target	assay	test system	conditions	scale	endpoint	result
PhoQ, residues 284 288 289 292 302 303 SCEHLI	PhoP, residues 12 14 15 18 19 QWHVF (Escherichia coli, UniProt P23836)	Sort-seq, measured: YFP reporter	E. coli	PhoQ-PhoP variant library, added: 10 µM Mg2+	baseline: high Mg2+ state, higher = stronger signaling	fold induction	3.59

Excerpt of the above (study 1):
Sequence	fitted relative affinity [z-score]
GACGAATTCGGGACTGGAGACGTGCTA	0.369
GACGGACTGGGATTTCGGGACGTGCTA	-0.415
